Measurements of several laboratories.
Each line is one published result; not all experiments were run side by side. Numbers after ± are the reported error.

Structure (SMILES)	assay	system	setting	scale	endpoint	value
C=CC(=C)CC[C@]1(C)[C@H](C)C[C@H](O)[C@@]23C(=C[C@H](OC(=O)C(C)C)C[C@@H]12)[C@@H](OC(C)=O)O[C@H]3OC(C)=O	haemolysis	–	100 µM	–	haemolysis	17.5%
Cc1ncc2c(n1)CN(C(=O)Nc1nc(-c3cccs3)ccc1N)C2	–	male beagle dogs	oral, 60 mg/kg daily, day 14	–	Cmax	10100 ± 4730 ng/mL
CC(C)[C@H](NC(=O)CNC(=O)[C@H](CCC(N)=O)NC(=O)[C@H](C)N)C(=O)O	–	human, both sexes, plasma	intravenous infusion, 45 mg/kg/h, 2 h infusion, geometric mean	–	half-life	0.25 h
CC12CC(c3ccc(S(C)(=O)=O)cc3)C3=C4CCC(=O)C=C4CCC3C1CCC2(O)C(F)(F)C(F)(F)F (stereo not drawn)	–	human, plasma	intravenous microdose, 15.7 µg, median	–	tlast	215 h
CCCCCCCC(=O)OC[C@H](NC(=O)[C@H](CO)NC(=O)CN)C(=O)N[C@@H](Cc1ccccc1)C(=O)N[C@@H](CC(C)C)C(=O)N[C@@H](CO)C(=O)N1CCC[C@H]1C(=O)N[C@@H](CCC(=O)O)C(=O)N[C@@H](Cc1cnc[nH]1)C(=O)N[C@@H](CCC(N)=O)C(=O)N[C@@H](CCCNC(=N)N)C(=O)N[C@H](C(=O)N[C@@H](CCC(N)=O)C(=O)N[C@@H](CCC(N)=O)C(=O)N[C@@H](CCCNC(=N)N)C(=O)N[C@@H](CCCCN)C(=O)N[C@@H](CCC(=O)O)C(=O)N[C@@H](CO)C(=O)N[C@@H](CCCCN)C(=O)N[C@@H](CCCCN)C(=O)N1CCC[C@H]1C(=O)N1CCC[C@H]1C(=O)N[C@@H](C)C(=O)N[C@@H](CCCCN)C(=O)N[C@@H](CC(C)C)C(=O)N[C@@H](CCC(N)=O)C(=O)N1CCC[C@H]1C(=O)N[C@@H](CCCNC(=N)N)C(=O)O)C(C)C	–	chronic HFrEF patients	intravenous infusion, 0.1 µg/kg/min, 60 min of infusion	–	heart rate	68.5 ± 11.2 bpm
COCCOCCOCCOCCOCCOCCOCCOCCC(=O)NCCCc1cc2cc3nc(cc4[nH]c(cc5nc(c(OC)c1[nH]2)C(=O)C5(C)C)cc4CCc1ccc(C(=O)O)cc1)CC3(C)C	–	DMF	room temperature	–	Qy absorption FWHM	22 nm
CC(=O)[CH](C(C)=O)[Pt-2]1([S+](C)C)[O]C(C)=CC(C)=[O+]1 (stereo not drawn)	–	rat, blood	intravenous, 10 mg/kg, single dose	–	ALT	29.7 ± 8.3 U/L
CC[C@H](C)[C@H](NC(=O)CNC(=O)CNC(=O)c1ccc2c(c1)C(=O)OC21c2ccc(O)cc2Oc2cc(O)ccc21)C(=O)N[C@@H](Cc1ccc(O)cc1)C(=O)N[C@@H](C)C(=O)N(C)CC(=O)N1CCC[C@H]1C(=O)N(C)[C@@H](Cc1ccccc1)C(=O)N[C@@H](CCCCN)C(=O)N[C@@H](CCCCN)C(=O)N[C@@H](CCCCN)C(N)=O	CE-LIF	Baf/BCR-ABL cytosolic lysate (mouse)	60 min	–	C-terminal carboxylate fragment share	43 ± 2%
COc1ccc(-c2ccn(CC[C@](C)(C(=O)NO)S(C)(=O)=O)c(=O)c2)c(F)c1	–	CF-1 mouse, female	subcutaneous, 75 mg/kg	–	Vss	3.3 ± 0.55 L/kg
NC12CNCCNCC(NCc3ccc(CNC(=O)CCCC(=O)NCc4ccc(-c5nncnn5)cc4)cc3)(CNCCNC1)CNCCNC2.[64Cu+2]	OLINDA dosimetry	red marrow	pretargeting, 24-h interval	–	mean absorbed dose	0.0302 rad/mCi
CNC(=O)N[C@]1(C)CCC[C@@]2(C)C3CC[C@@]4(C)C[C@]3(CCC21)CC4=O (single isomer, unassigned)	–	processed rat plasma	40 ng/mL, 24 h, room temperature, autosampler stability	–	measured concentration	44.1 ± 0.59 ng/mL
Clc1ccc2c(c1)nc(NCC1CCCN1)n2Cc1ccccc1 (stereo not drawn)	metabolic stability	rat, liver microsomes	0.1 µM, 30 min, pH 7.4	–	compound remaining	96.4%
Cc1ccc(OCC(=O)O)cc1	–	beagle dog, male, plasma	oral gavage, 30 mg/kg of parent drug	–	t1/2	4.42 h
CC(C)[C@H](CO)Nc1nc(Nc2ccc(C(=O)NCCNS(=O)(=O)c3cccc4c(N(C)C)cccc34)c(Cl)c2)c2ncn(C(C)C)c2n1	–	C57BL/6 mouse, brain cortex	intraperitoneal, 20 mg/kg, 4 h	–	concentration	530 ± 170 nM
CCCCCC(O)C=CC1OC2OC(C1CC=CCCCC(=O)O)C2(F)F (stereo not drawn)	–	50 mM phosphate buffer	pH 7.40, 23 °C	–	hydrolysis rate constant	2.5e-08 s⁻¹
O=C(O)[C@@H]1C[C@@H](O)CN1C(=O)[C@@H]1CCCN1	potentiometric titration	–	37 °C, MA2 complex, added: Fe(III)	–	log beta	24.2
COC(=O)c1ccc2c(c1)NC(=O)/C2=C(\Nc1ccc2c(c1)CCN2C(=O)CN1CCOCC1)c1ccccc1	–	Sprague-Dawley rat, whole blood	1 µM, 15 min, 37 °C	–	blood-to-plasma ratio	1.27
COc1cc(N(C)CCN(C)C)c(NC(=O)CCSCC(N)C(=O)O)cc1Nc1nccc(-c2cn(C3CC3)c3ccccc23)n1 (stereo not drawn)	radio-HPLC	human, feces	dose not given, 96 to 240 h, sample holds 16.61% dose	baseline: sample radioactivity	share of radioactivity	4.48%
CCN(CC)c1ccc2c(-c3ccc(S(=O)(=O)NCCNC(=O)CN4CCN(CC(=O)[O-])CCN(CC(=O)O)CCN(CC(=O)[O-])CC4)cc3S(=O)(=O)[O-])c3ccc(=[N+](CC)CC)cc-3oc2c1.[64Cu+2]	–	athymic nude mice, U-87 MG glioma xenograft	intravenous, 1 h post-injection	–	tumour uptake	6.91 ± 1.26 %ID/g
O=C(O)C1CN(Cc2ccc(-c3noc(-c4ccc(OCC[18F])c(C(F)(F)F)c4)n3)cc2)C1	–	rat, blood	intravenous, 1 h	–	tracer uptake	0.223 %ID/g
COc1cc(NC(C)=O)c2c(c1O)-c1c(OC)c(OC)cc3c1C(C2)N(C)CC3 (stereo not drawn)	–	rat, plasma	100 µg/mL, 4 h, room temperature, short-term storage	–	remaining compound	101 ± 3.7%
CCCC(CCC)NC(=O)c1ccc(OC)c(OC2OC(C(=O)O)C(O)C(O)C2O)c1 (stereo not drawn)	LC-MS extracted ion chromatogram	Sprague-Dawley rat, male and female, pooled plasma	oral, 200 mg/kg, 1 h	–	peak area	698000 cps
CC(C)(C)NCC(SS(=O)(=O)O)c1ccccc1 (stereo not drawn)	–	Swiss Webster CFW mouse, female, plasma	intravenous, 15 mg/kg, from 0 h to last	–	Vss	0.693 L/kg
COc1cc(-c2nc3ccccc3s2)cc(CN2Cc3cccc(n3)CNCc3cccc(n3)C2)c1O	UV-vis spectrophotometric titration, refers to: HL/L- equilibrium	MeOH/water with NaCl	50 µM, room temperature, NaCl 0.1 M, MeOH ≤20% v/v	–	pKa4	10.1
Cc1ccc(-c2ccc(-c3cc4sccc4o3)cn2)nc1	TCSPC	EtOH	–	–	radiative decay rate constant	0.4 ns⁻¹
COC(=O)C(c1ccccc1Cl)N1CCC(SCC(=O)c2cccc(OC)c2)C(=CC(=O)O)C1 (stereo not drawn)	LC-MS/MS	human plasma	2 ng/mL, 8 h, room temperature	–	measured concentration	2.2 ± 0.4 ng/mL
C[N+](C)(C)CCO.O=C(O)[C@H](O)Cc1ccccc1.O=C([O-])[C@H](O)Cc1ccccc1	thermogravimetric analysis	–	5% mass loss, nitrogen	–	decomposition temperature	199 °C
O=C([O-])CN1CCN(CC(=O)[O-])CCN(CC(=O)NCC2CCC(C(=O)NC(Cc3ccc4ccccc4c3)C(=O)NCCCCC(NC(=O)NC(CCC(=O)O)C(=O)O)C(=O)O)CC2)CCN(CC(=O)[O-])CC1.[44Sc+3] (stereo not drawn)	transchelation stability	–	24 h, 37 °C, added: EDTA 10 mM	–	intact complex	95.9 ± 1.2%
Cn1c(=O)oc2ccc(-c3ccc(CC(C#N)NC(=O)C4CNCCCO4)c(F)c3)cc21 (stereo not drawn)	–	human	oral, 10 mg once daily, TEAE, multiple ascending dose	–	urine WBC positive incidence	0%
[11CH3]c1ccc2nc(C3CCC3)n(-c3ccc4[nH]ncc4c3)c2n1	extrapolated from mouse	human male, Urinary bladder wall	–	–	absorbed dose	2.6 µSv/MBq

Some of these lines once more:
Structure (SMILES)	assay	system	setting	scale	endpoint	value
CC(C)[C@H](NC(=O)CNC(=O)[C@H](CCC(N)=O)NC(=O)[C@H](C)N)C(=O)O	–	human, both sexes, plasma	intravenous infusion, 45 mg/kg/h, 2 h infusion, geometric mean	–	half-life	0.25 h
CC12CC(c3ccc(S(C)(=O)=O)cc3)C3=C4CCC(=O)C=C4CCC3C1CCC2(O)C(F)(F)C(F)(F)F (stereo not drawn)	–	human, plasma	intravenous microdose, 15.7 µg, median	–	tlast	215 h
